Measured values collected from several papers.
Lines come from different studies, so protocols differ. Numbers after ± are the reported error.

| Compound | tested on | assay | system | conditions | how to read | measurement | result |
| --- | --- | --- | --- | --- | --- | --- | --- |
| CC[C@H](C)[C@H](NC(=O)[C@H](C)NC(=O)[C@H](CCCCN)NC(=O)[C@H](CC(C)C)NC(=O)[C@H](C)NC(=O)[C@@H](NC(=O)[C@H](Cc1c[nH]cn1)NC(=O)[C@H](CC(C)C)NC(=O)[C@@H](NC(=O)[C@@H](NC(=O)[C@H](CCCCN)NC(=O)[C@H](C)NC(=O)[C@H](C)NC(=O)[C@H](CO)NC(=O)[C@H](CCCCN)NC(=O)[C@H](Cc1ccccc1)NC(=O)[C@@H](NC(=O)[C@H](CCCCN)NC(=O)[C@H](CC(C)C)NC(=O)[C@H](Cc1ccccc1)NC(=O)[C@H](CO)NC(=O)[C@H](CCCCN)NC(=O)[C@H](Cc1c[nH]c2ccccc12)NC(=O)[C@H](CCCCN)NC(C)=O)[C@@H](C)O)[C@@H](C)O)C(C)C)[C@@H](C)O)C(=O)N[C@@H](CO)C(=O)N[C@@H](CO)C(N)=O | Acinetobacter baumannii | – | IPM-S | 33 strains | – | MIC90 | 8 µg/mL |
| CC(c1cccnc1)n1c(=S)[nH]c2cc(CO)c(Cl)cc2c1=O (stereo not shown) | Mycobacterium tuberculosis | – | PptT conditional knockdown | – | – | MIC90 | 42 µM |
| CCOC(=O)CC1(C(F)(F)F)N=C(NCc2ccccc2)C(=O)O1 (stereo not shown) | Schistosoma mansoni | microscopic viability scoring | newly transformed schistosomula | 10 µM, 72 h, prescreen | – | viability reduction | 13.8% |
| CC[C@H](C)[C@@H]1NC(=O)[C@@H]2CCCN2C(=O)[C@H](CC(C)C)NC(=O)[C@H](CC(C)C)NC(=O)CNC(=O)[C@@H](NC(=O)[C@@H](NC(=O)[C@H](CC(=O)O)NC(=O)CNC(=O)[C@@H](NC(=O)[C@H](C)NC(=O)CNC(=O)[C@H](CCCCN)NC(=O)[C@H](CC(C)C)NC(=O)[C@H](CC(C)C)NC(=O)[C@H](CCCCN)NC(=O)CNC(=O)[C@@H](NC(=O)[C@@H](N)CC(C)C)C(C)C)C(C)C)C(C)C)CSSC[C@@H](C(=O)O)NC1=O | – | RNA-seq, refers to: Mgst2 | mouse, traumatic brain injury model, frontal cortex and hippocampus | dose not given | relative to: TBI alone | log2 fold change | -3.06 |
| C[C@@H]1C[C@@]2(N=CCS2)[C@]2(O)O[C@@H]3C[C@@]4(C=O)[C@@H](CC[C@@H]5[C@@H]4CC[C@]4(C)[C@@H](C6=CC(=O)OC6)CC[C@]54O)C[C@H]3O[C@@H]2O1 | Schistosoma mansoni | microscopic viability score | adult worms | 1 µM, 24 h | – | viability effect | 96% |
| CC(C)C[C@@H]1NC(=O)[C@@H](Cc2ccccc2)NC(=O)[C@H](CCN)NC(=O)[C@@H](NC(=O)[C@H](CCN)NC(=O)[C@@H](N)[C@@H](C)O)CCNC(=O)[C@H]([C@@H](C)O)NC(=O)[C@H](CCN)NC(=O)[C@H](CCN)NC1=O | Escherichia coli | – | BW25113 | together with: novobiocin, lowest FICI | – | MIC | 12.5 µg/mL |
| COc1ccc(-c2cc(C(F)(F)F)c3c(N)c(C(=O)NCC45CC6CC(CC(C6)C4)C5)sc3n2)cc1 | Mycobacterium tuberculosis | growth inhibition | H37Rv LepB under-expressing | – | – | IC50 | 0.36 ± 0.2 µM |
| COc1cc(CCC[P+](c2ccccc2)(c2ccccc2)c2ccccc2)c(OC)c2c1OCO2.[I-] | SF-539 | SRB | – | – | – | GI50 | -5.64 log M |
| COc1c(C)c2c(c(O)c1C/C=C(\C)CCC(=O)O)C(=O)OC2 | BXPC-3 | cell proliferation | pancreas cancer | – | – | IC50 | 2.95 µM |
| Nc1ncnc2c1ncn2[C@@H]1O[C@@H]2COP(=O)(O)O[C@H]3[C@@H](O)[C@H](n4cnc5c(=O)[nH]cnc54)O[C@@H]3COP(=O)(O)O[C@H]2[C@H]1O | HFF-1 | RNA sequencing Reactome analysis, refers to: Reactome R-HSA-197264 | – | together with: West Nile virus infection | relative to: West Nile virus infected cells, upregulated pathway | pathway fold enrichment | 9.69 |
| C[C@]12CC[C@H]3[C@@H](CC=C4CC(O)CC[C@@]43CO)[C@@H]1CCC2O (stereo partly shown) | rat BSC hepatic stellate cells | – | – | concentration not given, together with: TGFβ | – | ACTA2 upregulation | decreased |
| COc1ccc(-c2cc(C(F)(F)F)c3c(N)c(C(=O)Nc4cc(C)cc(C)c4)sc3n2)cc1 | Mycobacterium tuberculosis | growth inhibition | H37Rv LepB under-expressing | – | – | IC50 | > 100 µM |
| CCOC(=O)c1cc2cc(Br)ccc2oc1=O | Schistosoma mansoni | microscopic viability scoring | newly transformed schistosomula | 10 µM, 72 h, prescreen | – | viability reduction | 17.3% |
| CC(C)N1CCC(NC2CCN(c3cccc(-c4cc5cc(F)ccc5[nH]4)c3)CC2)CC1 | RPMI-8226 | – | – | – | – | GI50 | 1.84 µM |
| COc1ccc(-c2cc(C(F)(F)F)c3c(N)c(C(=O)N4CC(OC)C4)sc3n2)cc1 | Mycobacterium tuberculosis | growth inhibition | H37Rv LepB under-expressing | – | – | IC50 | > 100 µM |
| COc1c(CCC[P+](c2ccccc2)(c2ccccc2)c2ccccc2)cc2c(c1OC)OCO2.[I-] | MOLT-4 | SRB | – | – | – | TGI | -4.79 log M |
| CC[C@H](C)[C@H](NC(=O)[C@H](CCCCN)NC(=O)[C@@H](NC(=O)[C@@H](NC(=O)[C@H](CC(C)C)NC(=O)[C@H](CCCNC(=N)N)NC(=O)[C@@H](NC(=O)[C@H](CC(C)C)NC(=O)[C@H](CCCNC(=N)N)NC(=O)CNC(=O)[C@H](Cc1ccccc1)NC(=O)[C@@H](N)CCCNC(=N)N)[C@@H](C)CC)[C@@H](C)CC)C(C)C)C(=O)N[C@@H](C)C(=O)N[C@@H](CCCNC(=N)N)C(=O)N[C@@H](CCCNC(=N)N)C(=O)N[C@@H](C)C(=O)N[C@@H](Cc1c[nH]cn1)C(=O)N[C@@H](CCCNC(=N)N)C(=O)N[C@@H](C)C(=O)N[C@@H](CCCNC(=N)N)C(=O)N[C@@H](CO)C(=O)N[C@@H](C)C(=O)N[C@H](C(=O)N[C@@H](CCCCN)C(=O)N[C@@H](C)C(=O)N[C@@H](C)C(=O)N[C@@H](CO)C(=O)N[C@@H](CC(N)=O)C(=O)N[C@H](C(=O)N[C@@H](C)C(=O)N[C@@H](CCC(=O)O)C(=O)N[C@@H](CC(C)C)C(=O)N[C@@H](C)C(=O)N[C@@H](Cc1c[nH]cn1)C(=O)NCC(=O)N[C@@H](CCC(=O)O)C(=O)O)C(C)C)C(C)C | SH-SY5Y | membrane disruption | – | – | – | EC50 | ≥ 0.19 µM |
| COc1ccc(N2C(=O)N(c3c(C)cccc3Cl)Cc3cnc(Nc4ccc(C5CCN(C)CC5)cc4OC)nc32)nc1 | CK1, human | kinase activity | – | 0.5 µM | – | inhibition | 5.53% |
| COc1ccc(-n2nc(C(C)=O)s/c2=N\N=C(/C)c2ccc(NC(C)=O)cc2)cc1 | WI-38 | – | – | 0.312 µM | – | toxicity | 96.3% |

Repeated from above:
| Compound | tested on | assay | system | conditions | how to read | measurement | result |
| --- | --- | --- | --- | --- | --- | --- | --- |
| CC[C@H](C)[C@H](NC(=O)[C@H](CCCCN)NC(=O)[C@@H](NC(=O)[C@@H](NC(=O)[C@H](CC(C)C)NC(=O)[C@H](CCCNC(=N)N)NC(=O)[C@@H](NC(=O)[C@H](CC(C)C)NC(=O)[C@H](CCCNC(=N)N)NC(=O)CNC(=O)[C@H](Cc1ccccc1)NC(=O)[C@@H](N)CCCNC(=N)N)[C@@H](C)CC)[C@@H](C)CC)C(C)C)C(=O)N[C@@H](C)C(=O)N[C@@H](CCCNC(=N)N)C(=O)N[C@@H](CCCNC(=N)N)C(=O)N[C@@H](C)C(=O)N[C@@H](Cc1c[nH]cn1)C(=O)N[C@@H](CCCNC(=N)N)C(=O)N[C@@H](C)C(=O)N[C@@H](CCCNC(=N)N)C(=O)N[C@@H](CO)C(=O)N[C@@H](C)C(=O)N[C@H](C(=O)N[C@@H](CCCCN)C(=O)N[C@@H](C)C(=O)N[C@@H](C)C(=O)N[C@@H](CO)C(=O)N[C@@H](CC(N)=O)C(=O)N[C@H](C(=O)N[C@@H](C)C(=O)N[C@@H](CCC(=O)O)C(=O)N[C@@H](CC(C)C)C(=O)N[C@@H](C)C(=O)N[C@@H](Cc1c[nH]cn1)C(=O)NCC(=O)N[C@@H](CCC(=O)O)C(=O)O)C(C)C)C(C)C | SH-SY5Y | membrane disruption | – | – | – | EC50 | ≥ 0.19 µM |
